Results of several laboratories.
Numbered parts are unrelated; each lists some results of a single study.

Set 1
Target: Hepatocyte nuclear factor 3-alpha (Foxa1, Mus musculus, UniProt P35582, residues 1-468, full length assumed)
Technique: EMSA with sequencing
Molecule type: double-stranded DNA, one strand shown
Sample: in vitro
Tested at: 10 and 20 nM
Setting: whole designed probe, mean of two concentrations, ends assumed
Reference: negative control set to 0
Direction: higher = stronger binding
Shared flanks, not repeated: GTGAGCGGTGCCCATTGATGGGGAAC … TTTCACTGGGATCGTGGGGAC
Construct (chain): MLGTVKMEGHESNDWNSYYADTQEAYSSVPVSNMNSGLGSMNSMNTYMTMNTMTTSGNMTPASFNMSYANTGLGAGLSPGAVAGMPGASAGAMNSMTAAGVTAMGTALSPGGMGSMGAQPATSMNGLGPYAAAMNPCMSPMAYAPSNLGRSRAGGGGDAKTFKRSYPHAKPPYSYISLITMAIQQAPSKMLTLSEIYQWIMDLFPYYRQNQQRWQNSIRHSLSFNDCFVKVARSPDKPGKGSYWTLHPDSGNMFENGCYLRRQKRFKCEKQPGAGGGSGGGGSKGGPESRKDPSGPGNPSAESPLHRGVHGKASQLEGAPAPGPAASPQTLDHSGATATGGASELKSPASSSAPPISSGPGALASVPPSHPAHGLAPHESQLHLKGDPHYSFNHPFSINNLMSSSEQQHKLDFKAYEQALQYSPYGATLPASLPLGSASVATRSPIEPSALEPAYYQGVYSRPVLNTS
Strand	normalised bound fraction
TTTAGTACTTTAAAATTTTCCAAAGTGCTTTTCCTTGTCTTATTATAACAATTGCCAGCATTTGGTCAGCACTCTAGAGGTTATAAAGTACTTTGTGTACACTGTCTCCTATGACATCACAGCAATGCTGTGGGTTATTATTACTTGACTCATTTTGCAGGCAAGGAAGCTAAGGTTCAGGAATGCTAAATGA	0.196 ratio
ATCTTCCCCCTCTTCCTTGCCCCACCAGCTCACCTACGGGGGTTATTTGCACAAAGGAAAATAAATAAAGCCGGCATTCGTTAACCCTCTTCACGCGCATACTGCTGTTTGCTCTGCATCTAACATGGTCCTTACGCGAGGCGTGGCTCCGGGAGAGCAAAGCACCGTGTCAGGCGCATGATCCGGGGTGGCC	0.391 ratio
AGCTGGATGACCCTGGCCCGAAAGTCACAGTTCAGTTGCCTTATTCCTAGTTCAGGCTTACTATCTAGAACCTCATGCTAGCTTAGGTTGCATGTTTACATTGCTGCAGTGTCTTTACTGGAAGCTTAGTTGGATCGAAATGGACACCGAGATGGAGATGCTTCTGGCTAGATTTCGCAGAACCCCAGGAGAC	0.356 ratio
ATCTTCCCCCTCTTCCTTGCCCCACCAGCTCACCTTCCCGGGTCAAAGTAAACAAGTGTTTACTTTGAAGCCGGCATTCGTTAACCCTCTTCTGGCGCAAACTGCCAAAGTAAACAGATGAATCATGGTCCTTTGGCGACGCCAGGCTCCGGGAGAGCAAAGCACCGTGTCAGGGCCATGATCCGGGGTGGCC	0.54 ratio
CTACTGCACAGAAAATTATCTGCTAAAATTCTGTGCAATGTGCATTGTTATTCTCTAAGTTTTTTTTTAAATAGCTATTTTGTAAAAATCCTAAGTAAACATGACTTGTAATGCAGGATACAAACTTTCATTTGTCTGTGACATCTGCAAGAGAAAGATGTGATGTCCCCATTTAAAGAGGAATAGCTGATTA	0.391 ratio
CTAATTTACATGTAACTATAAAGTTCTTTATGTTAAGGAAACATGATTTGTCCAGCATAAGAAAATACTTTATTTCTTAGAAAGCAATATTCCTTGTTTACCTTGCTTCTTCTAAGGGAAGAAAAATTATATCTCTTATAATTACAGAATCATTTTCTGTTTTGGGGGATTTGGAGTTAGTGAGACTAAAAAA	0.227 ratio
GTGGAAGAAGCAAATTATTTTTGTGTTAAAATGGATATTATCAACTGCAAAGAAAAAGGTGAATATTTCACAAGTGAGCCAGAACATTTACAGTGTAATCTAGAGCAGTTGCTACCTTTGCTTTTTTTTTCCCACTTCTTCAATATGATCACCATGCTTTTCATTACCCTGCTACTCAGTATTTCTAGTCAAC	-0.0545 ratio
ATCTTCCCCCTCTTCCTTGCCCCACCAGCTCACCTTCCCGGGTCAAAGTAAACAAGTGTTTACTTTGAAGCCGGCATTCGTTAACCCTCTTCTGGCGCAAACTGCTGTTTACTTTGGATGAATCATGGTCCTTTGGCGACGCCAGGCTCCGGGAGAGCAAAGCACCGTGTCAGGGCCATGATCCGGGGTGGCC	0.511 ratio

Set 2
Target: RING finger protein unkempt homolog, zinc fingers 1-6, GST-SBP tag (UNK, Homo sapiens, UniProt Q9C0B0, residues 30-357)
Technique: RNA Bind-n-Seq
Molecule type: RNA
Sample: in vitro
Tested at: not given
Setting: RNA with constant flanks, human and mouse sites, ends assumed
Reference: input RNA pool
Direction: higher = stronger binding
Shared flanks, not repeated: GGGAGUUCUACAGUCCGACGAUC … CAACAGAGGAUUGAGCAUCA
Target sequence (chain): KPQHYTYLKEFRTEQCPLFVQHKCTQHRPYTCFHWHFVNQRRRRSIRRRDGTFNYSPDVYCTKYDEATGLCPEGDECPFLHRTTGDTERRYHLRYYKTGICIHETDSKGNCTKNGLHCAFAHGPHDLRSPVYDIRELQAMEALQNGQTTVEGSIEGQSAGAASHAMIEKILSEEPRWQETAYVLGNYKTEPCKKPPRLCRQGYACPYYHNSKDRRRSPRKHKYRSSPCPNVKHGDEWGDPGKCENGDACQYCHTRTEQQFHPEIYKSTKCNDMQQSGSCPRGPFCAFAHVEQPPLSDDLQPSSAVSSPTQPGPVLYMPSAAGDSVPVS
Strand	bound/input enrichment [ratio]
AAAGACAAGUGUGUCCUGUGUGGAGGACUAACCUUAGAGAGGAGGAGAUUCCACCUGGCCUAGCUUUAUGGCUGUCAAUUGUCUAUUUUGCCAUUUAUAAGCUGAAAGAAGGCACUAAAG	0.208
UAAUAUGACUCUCCAUAUUUUGGUACCAAUUCUGAGACUGUAUGAAUUUUCAGGUGGAACUUUAGCACACACUGAAGCAAAGUUGUGAAGUGCAGGGCGGGAGGUGGGCGUGAGCUUUCU	0.249
AAGCAGCAGUGGCUGACGCUCUGCUGUUAGGAGACGCCAGGAGCAAGAAGAAGCCUGUGAGAAGGAGAUACGAGCCCUAUGGAAUGUACUCUGAUGAUGAUGCCAACAGUGAUGCCUCCA	0.113
AAUGCCAAAGGUUUGGCUGGAAUAUCAGGAGAGAGGAUUUGGGUAGAACUGAAGAAAAUUCUUACUGGUGACCAUGUAAACCAUUUGAUCCACCUGAUCUAUGAUCUUGGUGUGGCUCCU	0.0852
GUCCCCGCAGCCUAUGGCCCAGGCCGCCUUGGGUAUUUCUGCUCAAGGUAACCACAUCCCUCUUUAAAAAUUCCGCCGAAAAAGAGAAGACGCUUUACCCGACUCUUUGGGCCGUUAUCU	0.281
AACCAAUCAAAAACCACUCCUUUUAAAGAUUGCAAAGUAUUAAAACAAAGGCCAAGGUUUGUAGCCCUGAAGAAGCAGCCAUCCUAUAUUGGAGGACAUGAGGGCUUAGAAUUAAGAGAU	0.582
CCUUAUCACGUGUGUAAGGGGAAAAAGGUUUAAACAAGUCUCUUAAGUGGUGUUUCCUCACCGAUGGAGAAUUACUUCCAAGCAGAAGCUUACAACCUGGACAAGGUGUUAGAUGAAUUU	0.182
AGAGCAGAUCGCGAGUCAGGUUCUGCACAGCCUCCGGCGAGGGCUGGCCCAUCGGAAGGCUCCUUGAACAGUGGGAGCAGGCCGGCCACCAUGACCGAGAACUCCACCUCCGCCCCGGCG	0.0763
CUGCAGGAGAAAACCGAGUGCCUAAUACAGCAAUAUGAAGCUGUUAGCCUGCUUAACUCAGAGCGCUAUGCUCGCCUAGAGCGAGCACAGGUCUUAGUGAACCAGUUUUGGGAAACAUAC	0.266
AAUUCCAAGGGCUACACCAAGUCCAUUGAUAUUUGGUCUGUAGGCUGCAUUCUGGCAGAAAUGCUUUCUAACAGGCCCAUCUUUCCAGGGAAGCAUUAUCUUGACCAGCUGAACCACAUU	0.113
UGUGACUGCACAGAAAAGUUACAGAGCAGGUUUGAUUUUCUGCGCUCUCAGCUGAAUGACAUCUCAUCUUUUAAGAAUAUCUACAGAUAUGCCUUUGAUUUUGCAAGGGAUAAAGAUCAG	0.0647

Set 3
Target: Histone acetyltransferase KAT6A, winged helix 2, GST fusion (KAT6A, Homo sapiens, UniProt Q92794, residues 85-181)
Technique: protein binding microarray
Molecule type: double-stranded DNA, one strand shown
Sample: in vitro
Tested at: not given
Setting: 8-mer, flanks averaged, mean of 2 arrays, mostly near background
Reference: not given
Direction: higher = stronger binding
Residues (chain): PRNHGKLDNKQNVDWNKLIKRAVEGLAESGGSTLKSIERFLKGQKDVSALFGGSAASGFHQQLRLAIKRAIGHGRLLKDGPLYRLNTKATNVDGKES
Strand	E-score
ACCTGGAC	-0.0904
AAGACTCT	-0.136
GAGCGGCA	0.0296
ATCGAAAC	0.116
CACTCTGC	0.0991
AGCAAGTC	-0.133
GATCTAAA	0.1
AGACCCTG	-0.0703
CTACCTGA	-0.0569
AGCTTGAA	-0.109
CGATCTGC	0.122
GTTGGATA	0.0505
GTTGACAA	0.0616
GTGTGACA	-0.0853
AACGCTCA	-0.214
ATGATGTA	-0.00079
GCAAGCGA	0.142
AGTACTTA	-0.169
ATGAACCA	0.123

Set 4
Target: RNA binding protein fox-1 homolog 2, RRM domain, GST-SBP tag (RBFOX2, Homo sapiens, UniProt O43251-10, residues 100-194)
Technique: RNA Bind-n-Seq
Molecule type: RNA
Sample: in vitro
Tested at: 365 nM
Setting: natural RNA segment, single round, ends assumed
Reference: no-protein control
Direction: higher = stronger binding
Shared flanks, not repeated: GGGAGUUCUACAGUCCGACGAUC … UGGAAUUCUCGGGUGCCAA
Target sequence (chain): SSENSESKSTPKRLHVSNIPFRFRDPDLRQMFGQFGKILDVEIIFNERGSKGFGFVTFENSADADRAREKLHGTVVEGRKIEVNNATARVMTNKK
Strand	RBNS enrichment (R)
UUGAGGCUGGAACUUGCUCUCUCUGCCCCUAUUUCCUUGUAAAGAGGGAGCACAUUGACUUGGGAAUUUCCUCCAGGAAACUCAGGGCUGUUUUCUCUUCCCUUAGGUUG	0.264
CCCUUGCCUUAGGAUCCUGGUGCAGGUCCUAGUUGUUAUCUGCUCAGCCGGAGUUGAGAAGGAGUAACAGGUCUGAGGCUGUCCCGGAGAACCACCCAUCCCAGCUCAGC	0.259
UGUGUGUAAAAUGUCAUUUAAAGUGUUUUCAAAUGCAUUGCUCUUACAAUUUAUUUUCCUUUAACUCUUCUAUGAUAUUUAAAGCGUGCAUCUGCCACAUUGAUGAUUAA	0.524
CGGGGUUGUAAGGGAGUCUCAGAACCUCACUGAAUCCUUCACUCCAGUUAAUGGCACUGCUCACUUCCUGCCUCUGCUGCCACCAUCACUGUGUGAAGCUUUCAAGAGCU	0.234
UGCCCAGCCCUGUUCUAUUCUGCAGGGUCCCUGUGUUGGAAUUCUCCCUGGGGAACCUACUUUCUGCUCAGUGAGGCUCCGGCCAGAAACCUGGAGUCCUUAUCCUCCCC	0.246
AUCAAAUGAGACUAUUUGAGGGGACUAUUUGAAAUGAUUCUGGUAUUUCUUUUGGUAUCUUUCUUCCUGUACAUUGGAGUGAUGGAAAGUCUGGUAUUAAAACCUCUCUU	0.331
AGGGAGUGAAUAACAGUGAGAAGAGGAAUGGCAGGUGCCUGUUUCAUAGUCAGUGAGUGUGAAAGUUAGGCAUAAUAAUGGCAUCUCCCCACUUUAGGGUUCUCAAAUAC	0.267
GAAGGCCUGCUGGGGCUUUCCAUGGCCUUCUGCUGUUUCUCGCCAACACUACCCAGGACUCUUGCUACCUGGUUCCAACUCCAGACAACCACUAUGCCAGGCCCGGAGCC	0.359
ACUUUCUGACAAGCUGAAGCUAAUUGGUUCUUGAAUCUGAGUUGUUUCAAUUUAGGCCAAGUACUAGAACAAGGAAUCAUCAAAGAUAUAUGGGUAGAUUUUAUUAUGUA	0.447
CUUCUCCCGGGACCAUCCUGAUAUGGCGGUUCAUUCAGAAUGACCUGGAGGGGAAGGUGGGUGGGCGUUCUCUAAGGCACAACACCCCAAAGGCCGACUGUACCCAUGAG	0.341
UGCCCGACUUCGUACUAAGCAGCUCAGGAGCAGUCACUCAGACCCAAAUGUCUUGACUGUGUUGUUUUUAAUCACUGUGACCCUUAAAGUACAGGCCAAGUGUUGUCAAA	0.243
GCUCUGGAACAAUACCUGCAGUUAUUCUUCAGCUGUUUGGACAACUUAGAUUGGGUUUAUAACUAUUAGGAAUCACUGCACAGUUUAUUUGGGUUGUGUUUUGUGUCUGA	0.385

Excerpt of the above (set 3):
Strand	E-score
GTGTGACA	-0.0853
ATCGAAAC	0.116
AAGACTCT	-0.136
GTTGACAA	0.0616
AGACCCTG	-0.0703
GCAAGCGA	0.142
